Published values pooled from the literature.
Numbered parts are unrelated; each lists some results of a single study.
UniProt P52564, sequence (whole entry, looked up): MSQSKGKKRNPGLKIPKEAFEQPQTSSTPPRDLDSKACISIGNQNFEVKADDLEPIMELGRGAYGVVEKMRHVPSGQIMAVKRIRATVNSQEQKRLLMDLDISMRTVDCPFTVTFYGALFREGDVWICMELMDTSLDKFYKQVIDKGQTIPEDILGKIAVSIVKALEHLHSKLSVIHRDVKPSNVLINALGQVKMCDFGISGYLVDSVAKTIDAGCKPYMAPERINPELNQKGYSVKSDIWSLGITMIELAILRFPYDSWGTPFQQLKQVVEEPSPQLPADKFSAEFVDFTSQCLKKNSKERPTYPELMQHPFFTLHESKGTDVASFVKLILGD
UniProt P07333, sequence (whole entry, looked up): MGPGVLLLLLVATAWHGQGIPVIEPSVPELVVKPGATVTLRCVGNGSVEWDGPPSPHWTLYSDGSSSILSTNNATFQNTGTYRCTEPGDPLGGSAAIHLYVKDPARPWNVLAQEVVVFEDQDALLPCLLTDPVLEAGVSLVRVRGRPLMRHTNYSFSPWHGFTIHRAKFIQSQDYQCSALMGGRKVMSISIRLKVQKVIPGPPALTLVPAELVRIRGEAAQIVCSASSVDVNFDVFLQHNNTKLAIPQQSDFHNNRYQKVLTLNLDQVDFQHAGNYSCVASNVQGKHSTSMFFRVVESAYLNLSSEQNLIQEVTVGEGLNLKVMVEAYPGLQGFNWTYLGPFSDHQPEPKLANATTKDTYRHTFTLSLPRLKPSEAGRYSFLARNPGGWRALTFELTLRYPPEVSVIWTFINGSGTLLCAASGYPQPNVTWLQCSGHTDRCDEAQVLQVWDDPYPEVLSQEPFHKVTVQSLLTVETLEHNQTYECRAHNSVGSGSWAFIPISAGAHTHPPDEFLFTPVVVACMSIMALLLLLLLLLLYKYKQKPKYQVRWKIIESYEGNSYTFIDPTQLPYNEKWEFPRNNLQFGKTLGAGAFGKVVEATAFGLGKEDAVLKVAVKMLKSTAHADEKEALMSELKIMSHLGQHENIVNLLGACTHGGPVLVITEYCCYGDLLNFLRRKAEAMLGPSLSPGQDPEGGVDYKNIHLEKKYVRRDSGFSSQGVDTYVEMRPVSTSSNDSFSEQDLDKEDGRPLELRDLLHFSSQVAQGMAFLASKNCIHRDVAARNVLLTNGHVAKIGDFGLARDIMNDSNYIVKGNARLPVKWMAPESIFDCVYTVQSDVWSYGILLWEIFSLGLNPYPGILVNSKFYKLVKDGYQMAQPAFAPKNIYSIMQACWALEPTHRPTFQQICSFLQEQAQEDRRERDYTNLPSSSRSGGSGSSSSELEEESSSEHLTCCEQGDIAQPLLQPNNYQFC
UniProt P48736, sequence (whole entry, looked up): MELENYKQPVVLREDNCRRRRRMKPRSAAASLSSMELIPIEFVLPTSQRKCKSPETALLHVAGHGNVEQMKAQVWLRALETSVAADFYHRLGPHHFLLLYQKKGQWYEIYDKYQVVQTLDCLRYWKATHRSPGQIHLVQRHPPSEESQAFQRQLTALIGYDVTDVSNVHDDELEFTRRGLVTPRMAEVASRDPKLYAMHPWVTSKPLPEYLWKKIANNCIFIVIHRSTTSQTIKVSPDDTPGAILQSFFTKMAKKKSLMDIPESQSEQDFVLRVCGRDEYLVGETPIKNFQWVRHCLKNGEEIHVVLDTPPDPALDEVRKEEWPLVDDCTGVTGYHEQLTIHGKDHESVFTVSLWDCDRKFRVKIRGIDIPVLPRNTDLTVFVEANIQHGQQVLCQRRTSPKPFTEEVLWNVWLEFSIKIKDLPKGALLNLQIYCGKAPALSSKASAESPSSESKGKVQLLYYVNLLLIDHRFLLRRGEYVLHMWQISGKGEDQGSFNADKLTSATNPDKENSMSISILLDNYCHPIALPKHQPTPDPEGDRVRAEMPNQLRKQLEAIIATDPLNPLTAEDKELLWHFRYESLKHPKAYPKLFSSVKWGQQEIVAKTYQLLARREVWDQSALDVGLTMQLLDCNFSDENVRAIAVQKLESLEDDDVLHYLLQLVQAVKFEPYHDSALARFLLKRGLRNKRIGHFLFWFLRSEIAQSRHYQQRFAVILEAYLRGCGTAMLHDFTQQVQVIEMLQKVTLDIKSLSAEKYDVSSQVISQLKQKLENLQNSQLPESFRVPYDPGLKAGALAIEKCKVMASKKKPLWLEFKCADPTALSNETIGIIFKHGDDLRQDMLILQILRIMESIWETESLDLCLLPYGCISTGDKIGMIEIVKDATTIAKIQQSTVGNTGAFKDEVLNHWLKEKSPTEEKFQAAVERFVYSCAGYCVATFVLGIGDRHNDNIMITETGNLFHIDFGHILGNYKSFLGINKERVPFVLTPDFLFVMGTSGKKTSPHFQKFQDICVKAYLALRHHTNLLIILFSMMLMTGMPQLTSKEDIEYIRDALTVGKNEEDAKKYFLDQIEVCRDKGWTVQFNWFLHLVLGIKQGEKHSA
UniProt P23458, sequence (whole entry, looked up): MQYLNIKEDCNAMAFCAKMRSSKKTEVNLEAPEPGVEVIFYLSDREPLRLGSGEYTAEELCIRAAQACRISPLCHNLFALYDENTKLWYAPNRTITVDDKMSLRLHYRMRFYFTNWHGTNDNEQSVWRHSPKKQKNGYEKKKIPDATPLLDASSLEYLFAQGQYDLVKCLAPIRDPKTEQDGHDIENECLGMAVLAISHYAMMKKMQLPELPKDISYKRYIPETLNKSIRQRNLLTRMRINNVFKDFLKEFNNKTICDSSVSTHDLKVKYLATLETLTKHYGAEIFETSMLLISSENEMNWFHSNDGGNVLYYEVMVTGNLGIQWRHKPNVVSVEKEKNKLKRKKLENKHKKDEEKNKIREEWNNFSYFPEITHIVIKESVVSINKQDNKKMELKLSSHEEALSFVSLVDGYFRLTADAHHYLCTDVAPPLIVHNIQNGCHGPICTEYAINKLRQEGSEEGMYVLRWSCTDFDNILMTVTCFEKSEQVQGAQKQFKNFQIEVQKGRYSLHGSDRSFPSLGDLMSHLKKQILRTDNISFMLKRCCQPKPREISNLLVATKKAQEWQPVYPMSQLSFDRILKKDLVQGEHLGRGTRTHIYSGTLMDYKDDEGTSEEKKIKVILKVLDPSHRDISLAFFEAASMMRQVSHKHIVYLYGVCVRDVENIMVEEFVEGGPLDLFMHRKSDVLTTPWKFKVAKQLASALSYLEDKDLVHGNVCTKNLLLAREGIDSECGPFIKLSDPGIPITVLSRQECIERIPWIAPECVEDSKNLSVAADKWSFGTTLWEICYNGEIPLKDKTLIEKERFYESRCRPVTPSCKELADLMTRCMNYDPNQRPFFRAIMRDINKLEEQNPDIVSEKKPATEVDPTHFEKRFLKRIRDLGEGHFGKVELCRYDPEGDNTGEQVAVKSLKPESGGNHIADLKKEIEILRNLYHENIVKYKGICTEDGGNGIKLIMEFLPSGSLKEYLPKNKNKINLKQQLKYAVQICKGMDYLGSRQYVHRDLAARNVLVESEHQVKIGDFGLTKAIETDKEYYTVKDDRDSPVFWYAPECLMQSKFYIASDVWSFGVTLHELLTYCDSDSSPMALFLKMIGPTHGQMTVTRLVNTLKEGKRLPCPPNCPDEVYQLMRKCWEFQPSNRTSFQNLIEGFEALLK
UniProt P53778, sequence (whole entry, looked up): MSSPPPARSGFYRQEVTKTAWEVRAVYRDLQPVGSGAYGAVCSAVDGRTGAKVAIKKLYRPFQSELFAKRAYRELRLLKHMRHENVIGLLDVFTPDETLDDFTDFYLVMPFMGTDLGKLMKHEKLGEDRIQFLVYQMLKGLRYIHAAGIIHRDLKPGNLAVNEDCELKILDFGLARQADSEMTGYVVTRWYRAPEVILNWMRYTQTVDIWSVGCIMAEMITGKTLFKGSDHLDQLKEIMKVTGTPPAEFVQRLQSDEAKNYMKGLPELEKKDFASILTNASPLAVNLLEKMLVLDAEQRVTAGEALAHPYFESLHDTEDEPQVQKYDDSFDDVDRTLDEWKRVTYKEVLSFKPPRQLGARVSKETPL
UniProt O14965, sequence (whole entry, looked up): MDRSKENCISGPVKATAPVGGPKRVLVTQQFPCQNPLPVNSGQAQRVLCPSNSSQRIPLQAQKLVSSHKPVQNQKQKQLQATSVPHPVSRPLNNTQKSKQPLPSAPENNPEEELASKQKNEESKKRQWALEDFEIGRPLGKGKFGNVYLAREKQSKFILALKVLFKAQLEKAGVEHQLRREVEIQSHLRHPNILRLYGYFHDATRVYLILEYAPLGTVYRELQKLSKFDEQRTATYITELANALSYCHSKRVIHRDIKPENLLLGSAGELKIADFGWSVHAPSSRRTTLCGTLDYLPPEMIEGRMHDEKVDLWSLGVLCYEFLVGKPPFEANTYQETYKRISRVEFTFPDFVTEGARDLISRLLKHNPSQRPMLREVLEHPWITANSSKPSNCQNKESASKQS

Sample 1
Cell line: A-375
Concentration: 100 µM
Time: 18 h
Structure (SMILES)	viability [%]
CC[C@@H](C(N)=O)N1CCCC1=O	108
CCOC(=O)c1cncn1[C@H](C)c1ccccc1	91.7
N#Cc1ccccc1-c1cc(-c2ccccn2)cn(-c2ccccc2)c1=O	93.2
COC1=C[C@@H]2[C@@H]3Cc4ccc(OC)c(O)c4[C@]2(CCN3C)CC1=O	90.9
CC[C@]12C=CCN3CC[C@]4(C(=C(C(=O)OC)C1)Nc1ccccc14)[C@@H]32	25.1

Sample 2
Target: Dual specificity tyrosine-phosphorylation-regulated kinase 1B (DYRK1B, Homo sapiens, UniProt Q9Y463)
Read-out: enzyme activity
Action: inhibitor
Method: radiometric
Concentration: 0.5 µM
SMILES	remaining activity [%]
Cc1nc(-c2ccccc2)c(-c2ccncc2)o1	98.9
NCCNc1ncc(C(N)=O)c(Nc2cccc(C(F)(F)F)c2)n1	85.9
O=S(=O)(c1cccc2cnccc12)N1CCCNCC1	96.3
COc1ccc(OC)c2c(=S)c3ccccc3[nH]c12	107
Oc1ccc(-c2nc(-c3ccncc3)c(-c3ccc(F)cc3)[nH]2)cc1	105
O=C(CCCc1ccc(-c2ccccc2F)cc1)Nc1ccc(O)cc1	108
CN(C)c1ccc(C=C2C(=O)Nc3ccccc32)cc1	106
O=C1NC(=O)C(c2cn(CCCO)c3ncccc23)=C1c1cnccn1	93.2
O=C1NC(=O)c2cc(Nc3ccc(F)cc3)c(Nc3ccc(F)cc3)cc21	105
Cn1c2ccccc2c2c3c(c4c5ccccc5n(CCC#N)c4c21)CNC3=O	25.6
COc1ccc(CNC(=O)Nc2ncc([N+](=O)[O-])s2)cc1	99.4
CO[C@H]1C[C@@H]2CC[C@@H](C)[C@@](O)(O2)C(=O)C(=O)N2CCCC[C@H]2C(=O)O[C@H]([C@H](C)C[C@@H]2CC[C@@H](O)[C@H](OC)C2)CC(=O)[C@H](C)/C=C(\C)[C@@H](O)[C@@H](OC)C(=O)[C@H](C)C[C@H](C)/C=C/C=C/C=C/1C	108

Sample 3
Cell line: L929
Read-out: necroptosis protection
Method: CCK-8
Concentration: 0.156 µM
Together with: TNF-α plus zVAD
Structure (SMILES)	viability [%]
CC[C@@H](C)c1nc2cc(Nc3ccnc4ccc(S(=O)(=O)C(C)C)cc34)ccc2s1	19.5
CC(C)S(=O)(=O)c1ccc2nccc(Nc3ccc4sc(C5CCCC5)nc4c3)c2c1	31.6
CC(C)S(=O)(=O)c1cc2c(Nc3ccc4sc(C5CCCC5)nc4c3)ccnc2cc1OCCO	53.1
CC(C)S(=O)(=O)c1ccc2nccc(Nc3ccc4scnc4c3)c2c1	14.1

Sample 4
SMILES: Cn1cncc1[C@@](O)(COc1ccc(C#N)cc1-c1ccc(OC(F)(F)F)cc1)c1ccc(C#N)cc1
Read-out: cell-free assay
Method: competition with immobilised ligand
Concentration: 1 µM
target	remaining binding
Tyrosine-protein kinase JAK1, JH1 (JAK1, Homo sapiens, UniProt P23458)	100%
Macrophage colony-stimulating factor 1 receptor, autoinhibited (CSF1R, Homo sapiens, UniProt P07333)	100%
BMP-2-inducible protein kinase (BMP2K, Homo sapiens, UniProt Q9NSY1)	79%
Aurora kinase A (AURKA, Homo sapiens, UniProt O14965)	76%
Phosphatidylinositol 4,5-bisphosphate 3-kinase catalytic subunit gamma isoform (PIK3CG, Homo sapiens, UniProt P48736)	69%
SRSF protein kinase 1 (SRPK1, Homo sapiens, UniProt Q96SB4)	97%
Mitogen-activated protein kinase 12 (MAPK12, Homo sapiens, UniProt P53778)	100%
Hormonally up-regulated neu tumor-associated kinase (HUNK, Homo sapiens, UniProt P57058)	100%
Dual specificity mitogen-activated protein kinase kinase 6 (MAP2K6, Homo sapiens, UniProt P52564)	94%
Mitogen-activated protein kinase kinase kinase 13 (MAP3K13, Homo sapiens, UniProt O43283)	72%
